# Results of several laboratories.
# ± gives the spread as reported.
# DRD2: D(2) dopamine receptor (DRD2, Homo sapiens, UniProt P14416)
# FGFR1: Fibroblast growth factor receptor 1 (FGFR1, Homo sapiens, UniProt P11362)
# Mycosin-1: Mycosin-1 (Mycolicibacterium thermoresistibile, UniProt G7CDQ2)
# TMPRSS2: Transmembrane protease serine 2 (TMPRSS2, Homo sapiens, UniProt O15393)
# TMPRSS11D: Transmembrane protease serine 11D (TMPRSS11D, Homo sapiens, UniProt O60235)
# AGTR1: Type-1 angiotensin II receptor (AGTR1, Homo sapiens, UniProt P30556)
Structure (SMILES),target or system,assay,system,setting,scale,endpoint,result
[64Cu+2].c1cnc(CNCc2ccc(CN3CCCN4CCNCCCN(CC4)CC3)cc2)nc1,CXCR4,,"NOD/SCID mouse, U87 and U87-stb-CXCR4 xenografts, liver","iv, 60 min, ex vivo",,tissue uptake,83.5 ± 6.21 %ID/g
N=C(N)NCCC[C@@H]1NC(=O)[C@H](CCCCNC(=O)CNC(=O)CNC(=O)CNC(=O)CC[C@H](NC(=O)CNC(=O)CNC(=O)CNC(=O)CN2CCN(CC(=O)O)CCN(CC(=O)O)CCN(CC(=O)O)CC2)C(=O)NCC(=O)NCC(=O)NCC(=O)NCCCC[C@@H]2NC(=O)[C@@H](Cc3ccccc3)NC(=O)[C@H](CC(=O)O)NC(=O)CNC(=O)[C@H](CCCNC(=N)N)NC2=O)NC(=O)[C@@H](Cc2ccccc2)NC(=O)[C@H](CC(=O)O)NC(=O)CNC1=O [indium-111 labelled],,,"female athymic nu/nu mice, eyes","intravenous, 72 h",,tissue uptake,0.16 ± 0.03 %ID/g
CN(C)C(=O)c1cncc(N2Cc3cn(Cc4ccc(F)cc4)nc3C2)n1,DRD2,ligand displacement,,10 µM,,inhibition,54%
OC(c1cccc(Oc2ccccc2)c1)c1c[nH]c2ncc(C(F)(F)F)cc12 (centres unmarked),FGFR1,"enzyme activity, inhibitor",,0.1 µM,,inhibition,15%
NS(=O)(=O)c1ccc(/N=N/c2ccc(O)nc2O)cc1,"Semaphorin-3C, with neuropilin-1 (SEMA3C, Homo sapiens, UniProt Q99985)","SEMA3C binding, inhibitor",,"25 µM, with: SEMA3C",baseline: DMSO,inhibition,> 50%
NCCO[C@H]1[C@H](O)[C@@H](O)[C@@H]2O[C@@H]2[C@@H]1C(=O)O,"Heparanase (HPSE, Homo sapiens, UniProt Q9Y251)","inhibitor, competitive ABPP",human platelet lysate,"up to 100 µM, 60 min, pH 5.0",,inhibition,inactive
CCCC(/C=N/NC(=N)N)=N\NC(=N)N,Mycosin-1,"protease activity, inhibitor, quenched fluorescent peptide",,"150 µM, with: 20 µM fluorogenic peptide substrate",baseline: DMSO control,inhibition,54.3%
COc1ccc(Nc2c(C(N)=O)cnc3c(C)cc(-c4ccc5cnn(C)c5c4)cc23)cc1,"PDEB1 (Trypanosoma brucei, UniProt Q8WQX9)","enzyme activity, inhibitor",,10 µM,,inhibition,34%
N=C(N)NCCC[C@@H]1NC(=O)[C@H](CCCCNC(=O)CC[C@H](NC(=O)CC[C@H](NC(=O)CN2CCN(CC(=O)O)CCN(CC(=O)O)CCN(CC(=O)O)CC2)C(=O)N[C@@H](CCC(=O)NCCCC[C@@H]2NC(=O)[C@@H](Cc3ccccc3)NC(=O)[C@H](CC(=O)O)NC(=O)CNC(=O)[C@H](CCCNC(=N)N)NC2=O)C(=O)NCCCC[C@@H]2NC(=O)[C@@H](Cc3ccccc3)NC(=O)[C@H](CC(=O)O)NC(=O)CNC(=O)[C@H](CCCNC(=N)N)NC2=O)C(=O)NCCCC[C@@H]2NC(=O)[C@@H](Cc3ccccc3)NC(=O)[C@H](CC(=O)O)NC(=O)CNC(=O)[C@H](CCCNC(=N)N)NC2=O)NC(=O)[C@@H](Cc2ccccc2)NC(=O)[C@H](CC(=O)O)NC(=O)CNC1=O [indium-111 labelled],,,"female athymic nu/nu mice, eyes","intravenous, 4 h",,tissue uptake,0.92 ± 0.46 %ID/g
COc1cc(C(=O)NC2CCC(N3CCN(CC4CCC5(CCCC5)C4)CC3)CC2)c(F)cc1Nc1ncc2c(n1)N(C1CCCC1(F)F)CC(F)(F)C(=O)N2C (centres unmarked),"LYN (Homo sapiens, UniProt P07948)","cell-free assay, TR-FRET",,10 µM,,inhibition,0.62%
Cc1cccc(C(=O)Nc2ccc(CN)cc2)c1O,TMPRSS2,"enzyme activity, inhibitor",,"10 µM, with: Boc-QAR-AMC",,inhibition,< 20%
Cc1ccc2c(c1Br)C(O)(CC(=O)c1ccc3c(c1)OCO3)C(=O)N2 (centres unmarked),"Uncharacterized protein (Trypanosoma brucei brucei, UniProt Q386Q8)","enzyme activity, inhibitor, coupled colorimetric",Trypanosoma brucei,100 µM,,inhibition,65%
Cc1cc2c(NC(=O)N[C@@H]3CC(C)(C)Oc4cc(C(F)(F)F)ccc43)cccc2cn1,"Trpv1 (Rattus norvegicus, UniProt O35433)","acid-evoked calcium influx, antagonist","HEK293, rat","11.25 µM, pH 5",,inhibition,20.1 ± 8.5%
COc1ccc2c(O)c(C(=O)Nc3ccc(CN)cc3)ccc2c1,TMPRSS11D,"enzyme activity, fluorogenic substrate",,"10 µM, with: Boc-VPR-AMC",,inhibition,< 20%
Cc1c(-c2c3c(N)n[nH]c(=O)c3nn2-c2ccccc2)oc2ccc(C(F)(F)F)cc12,FGFR1,"enzyme activity, inhibitor, ELISA",,0.1 µM,,inhibition,38%
CC(C)=CCCC(C)=CCc1cc(-c2coc3cc(OC4OC(C(=O)O)C(O)C(O)C4O)ccc3c2=O)ccc1O (centres unmarked),,"glucuronidation, substrate",monkey liver microsomes,,,substrate inhibition Ki,5.5 ± 1.47 µM
CCn1c2ccccc2c2cc(CNCCCn3ccnc3)ccc21,DRD2,"cell-free assay, inhibitor",,10 µM,,inhibition,17.6%
Cn1c(=O)oc2ccc(-c3ccc(CC(C#N)NC(=O)C4CNCCCO4)c(F)c3)cc21 (centres unmarked),,,human,"oral, 40 mg once daily, TEAE, multiple ascending dose",,chest pain incidence,0%
NCc1ccc(NC(=O)c2ccc(F)cc2O)cc1,TMPRSS2,"enzyme activity, inhibitor",,"10 µM, with: Boc-QAR-AMC",,inhibition,< 20%
CC(C)C1C=C2CCC3C(C)(C(=O)O)CCCC3(C)C2CC1 (centres unmarked),"RPA1 (Homo sapiens, UniProt P27694)","ssDNA binding, EMSA",,200 µM,,inhibition,no effect
Cc1ccc([N+](=O)[O-])cc1S(=O)(=O)N(C)/N=C/c1cnc2ccc(Br)cn12,"MAPK13 (Homo sapiens, UniProt O15264)","enzyme activity, inhibitor, radiometric",,50 nM,,inhibition,5.4%
Cc1ccc(C(=O)Nc2ccc(CN)cc2)c(O)c1,"Kallikrein-6 (Homo sapiens, UniProt Q92876)","enzyme activity, inhibitor",,10 µM,,inhibition,55%
OC(c1ccc(Cl)c(C(F)(F)F)c1)c1c[nH]c2ncc(C(F)(F)F)cc12 (centres unmarked),FGFR1,"enzyme activity, inhibitor",,0.1 µM,,inhibition,3%
Cc1c(-c2c(C#N)c(C(=O)NN)nn2-c2ccccc2)oc2ccccc12,FGFR1,"enzyme activity, inhibitor, ELISA",,1 µM,,inhibition,12.4%
CCCCOC(=O)NS(=O)(=O)c1sc(CC(C)C)cc1-c1ccc(C)c(Cn2ccnc2)c1,AGTR1,"ligand displacement, radioligand",,"10 µM, cell membranes",,inhibition,14%
N=C(N)NCCC[C@@H]1NC(=O)[C@H](Cc2c[nH]c3ccccc23)NC(=O)[C@@H](CC2CCCCC2)NC(=O)[C@@H]2CCCN2C(=O)[C@@H](NC(=O)CCc2ccccc2)CCCNC1=O,,two-compartment model,"C57BL/6J mice, brain","oral, 1 mg/kg",,alpha rate constant,2.88 h⁻¹
O=C1CCN(Cc2ccccc2)CC1C(C[N+](=O)[O-])c1ccccc1 (centres unmarked),,tail immersion test,BALB/c mice,"ip, 25 mg/kg, 1.5 h",,tail flick response,34.1%
OC(c1cccc(C(F)(F)F)c1)c1c[nH]c2ncc(C(F)(F)F)cc12 (centres unmarked),FGFR1,"enzyme activity, inhibitor",,1 µM,,inhibition,22%
CCCCC/C=C/C(=O)CCc1ccc(O)c(OC)c1,mouse mAb 1-F12,"antibody binding, indirect competitive ELISA",,with: coating antigen 4-OVA,,IC50,0.134 µg/mL
NCc1ccc(NC(=O)c2ccc(C(F)(F)F)cc2O)cc1,TMPRSS11D,"enzyme activity, fluorogenic substrate",,"10 µM, with: Boc-VPR-AMC",,inhibition,< 20%
NCCCCNC(=O)COc1cccc2c1C(=O)N(C1CCC(=O)NC1=O)C2=O (centres unmarked),"von Hippel-Lindau disease tumor suppressor, with elongin B/C (VHL, Homo sapiens, UniProt P40337)",TR-FRET,,"2.1 pM to 30 µM, 90 min",,inhibition,inactive
NCc1ccc(NC(=O)c2ccc3ccccc3c2)cc1,TMPRSS11D,"enzyme activity, fluorogenic substrate",,"10 µM, with: Boc-VPR-AMC",,inhibition,< 20%
O=C(Nc1ccc(S(=O)(=O)Nc2cnc3ccccc3n2)cc1)c1ccc(Cl)cc1Cl,"PPIA (Homo sapiens, UniProt P62937)","enzyme activity, inhibitor",,10 µM,,inhibition,7.5%
N#Cc1c(NC(=O)CCl)sc2c1CCC(c1ccccc1)C2 (centres unmarked),"LDHA (Homo sapiens, UniProt P00338)","enzyme activity, inhibitor, fluorescence",,100 µg/mL,,inhibition,24.9%
CCOC(=O)NS(=O)(=O)c1sc(CC(C)C)cc1-c1ccc2c(c1)CCN(C(=O)OC)C2,AGTR1,"ligand displacement, radioligand",,"10 µM, cell membranes",,inhibition,15%
FC(F)(F)c1cccc(Cc2c[nH]c3ncc(C(F)(F)F)cc23)c1,FGFR1,"enzyme activity, inhibitor",,0.1 µM,,inhibition,10%
C=C(C)c1cc(NNC(=N)N)c(C)cc1NNC(=N)N,Mycosin-1,"protease activity, inhibitor, quenched fluorescent peptide",,"150 µM, with: 20 µM fluorogenic peptide substrate",baseline: DMSO control,inhibition,71.5%
[64Cu+2].c1ccc(CNCc2ccc(CN3CCCN4CCNCCCN(CC4)CC3)cc2)nc1,CXCR4,,"NOD/SCID mouse, U87 xenografts, U87-stb-CXCR4 tumour","90 min, with: AMD3465 25 mg/kg sc",,tissue uptake,2.5 ± 0.41 %ID/g
Oc1c(C(Nc2nccs2)c2ccccc2OCc2ccccc2)ccc2cccnc12 (centres unmarked),"Genome polyprotein, NS2B-NS3 protease (GP1, West Nile virus, UniProt Q9Q6P4)","enzyme activity, inhibitor",,"25 µM, 0.1% CHAPS, with: tetrapeptide substrate",,inhibition,83.1 ± 1.08%
CCCCOC(=O)NS(=O)(=O)c1sc(CC(C)C)cc1-c1cccc(CN(Cc2cccnc2)C(C)=O)c1,AGTR1,"ligand displacement, radioligand",,"10 µM, cell membranes",,inhibition,23%
COc1cccc(C(O)c2c[nH]c3ncc(C(F)(F)F)cc23)c1 (centres unmarked),FGFR1,"enzyme activity, inhibitor",,1 µM,,inhibition,78%
CN(C)S(=O)(=O)c1cc(C(=O)O)ccc1NCCCCCCCC(F)(F)F,"SLC12A2 (Homo sapiens, UniProt P55011)",chloride influx,HEK293 transfected with SLC12A2,100 µM,baseline: DMSO,inhibition,95.2 ± 7.6%
COc1cc(CCC(C)=O)ccc1O,mouse mAb 1-F12,"antibody binding, indirect competitive ELISA",,with: coating antigen 3-OVA,,IC50,> 4 µg/mL
FC(F)(F)c1cnc2[nH]cc(Cc3cccc(Cl)c3)c2c1,FGFR1,"enzyme activity, inhibitor",,0.1 µM,,inhibition,2%
CCOc1cccc(C(=O)Nc2ccc(-c3nc4ccccc4[nH]3)cc2)c1,"Heat shock protein HSP 90-beta, N-terminal domain (HSP90AB1, Homo sapiens, UniProt P08238)","binding, fluorescence polarization",,"10 µM, with: FITC-geldanamycin",,inhibition,no inhibition
OC(c1ccc2c(c1)OC(F)(F)O2)c1c[nH]c2ncc(C(F)(F)F)cc12 (centres unmarked),FGFR1,"enzyme activity, inhibitor",,0.1 µM,,inhibition,3%
CCCC[C@H](NC(=O)CNC(=O)CNC(=O)CN1CCN(CC(=O)O)CCN(CC(=O)O)CCN(CC(=O)O)CC1)C(=O)N[C@H]1CC(=O)NCCCC[C@@H](C(N)=O)NC(=O)[C@H](Cc2c[nH]c3ccccc23)NC(=O)[C@H](CCCNC(=N)N)NC(=O)[C@@H](Cc2ccccc2)NC(=O)[C@H](Cc2c[nH]cn2)NC1=O [lutetium-177 labelled],,,"C57 mouse, female, heart","intravenous, 0.037 MBq, 24 h",,tissue uptake,0.17 ± 0.13 %ID/g

# Some of these lines once more:
Structure (SMILES),target or system,assay,system,setting,scale,endpoint,result
N=C(N)NCCC[C@@H]1NC(=O)[C@H](CCCCNC(=O)CC[C@H](NC(=O)CC[C@H](NC(=O)CN2CCN(CC(=O)O)CCN(CC(=O)O)CCN(CC(=O)O)CC2)C(=O)N[C@@H](CCC(=O)NCCCC[C@@H]2NC(=O)[C@@H](Cc3ccccc3)NC(=O)[C@H](CC(=O)O)NC(=O)CNC(=O)[C@H](CCCNC(=N)N)NC2=O)C(=O)NCCCC[C@@H]2NC(=O)[C@@H](Cc3ccccc3)NC(=O)[C@H](CC(=O)O)NC(=O)CNC(=O)[C@H](CCCNC(=N)N)NC2=O)C(=O)NCCCC[C@@H]2NC(=O)[C@@H](Cc3ccccc3)NC(=O)[C@H](CC(=O)O)NC(=O)CNC(=O)[C@H](CCCNC(=N)N)NC2=O)NC(=O)[C@@H](Cc2ccccc2)NC(=O)[C@H](CC(=O)O)NC(=O)CNC1=O [indium-111 labelled],,,"female athymic nu/nu mice, eyes","intravenous, 4 h",,tissue uptake,0.92 ± 0.46 %ID/g
COc1cc(C(=O)NC2CCC(N3CCN(CC4CCC5(CCCC5)C4)CC3)CC2)c(F)cc1Nc1ncc2c(n1)N(C1CCCC1(F)F)CC(F)(F)C(=O)N2C (centres unmarked),"LYN (Homo sapiens, UniProt P07948)","cell-free assay, TR-FRET",,10 µM,,inhibition,0.62%
Cc1cccc(C(=O)Nc2ccc(CN)cc2)c1O,TMPRSS2,"enzyme activity, inhibitor",,"10 µM, with: Boc-QAR-AMC",,inhibition,< 20%
Cc1ccc2c(c1Br)C(O)(CC(=O)c1ccc3c(c1)OCO3)C(=O)N2 (centres unmarked),"Uncharacterized protein (Trypanosoma brucei brucei, UniProt Q386Q8)","enzyme activity, inhibitor, coupled colorimetric",Trypanosoma brucei,100 µM,,inhibition,65%
Cc1cc2c(NC(=O)N[C@@H]3CC(C)(C)Oc4cc(C(F)(F)F)ccc43)cccc2cn1,"Trpv1 (Rattus norvegicus, UniProt O35433)","acid-evoked calcium influx, antagonist","HEK293, rat","11.25 µM, pH 5",,inhibition,20.1 ± 8.5%
COc1ccc2c(O)c(C(=O)Nc3ccc(CN)cc3)ccc2c1,TMPRSS11D,"enzyme activity, fluorogenic substrate",,"10 µM, with: Boc-VPR-AMC",,inhibition,< 20%
Cc1c(-c2c3c(N)n[nH]c(=O)c3nn2-c2ccccc2)oc2ccc(C(F)(F)F)cc12,FGFR1,"enzyme activity, inhibitor, ELISA",,0.1 µM,,inhibition,38%
CC(C)=CCCC(C)=CCc1cc(-c2coc3cc(OC4OC(C(=O)O)C(O)C(O)C4O)ccc3c2=O)ccc1O (centres unmarked),,"glucuronidation, substrate",monkey liver microsomes,,,substrate inhibition Ki,5.5 ± 1.47 µM
